Experimental data from different studies.
Parts stem from different laboratories: compare values within a part only. Changes are numbered by the printed parent chain.

Series 1
Target: ABI1, truncated, D143A, DHFR fusion (Arabidopsis thaliana)
Method: DHFR PCA, deep sequencing
Matrix: yeast
Notes: methotrexate growth selection, single substitutions
Together with: (+)-ABA 1.4 µM
Relative to: wild-type fitted maximum
Direction: higher = stronger binding
Endpoint: relative binding score
Starting sequence: PYL1, truncated, DHFR fusion (Arabidopsis thaliana); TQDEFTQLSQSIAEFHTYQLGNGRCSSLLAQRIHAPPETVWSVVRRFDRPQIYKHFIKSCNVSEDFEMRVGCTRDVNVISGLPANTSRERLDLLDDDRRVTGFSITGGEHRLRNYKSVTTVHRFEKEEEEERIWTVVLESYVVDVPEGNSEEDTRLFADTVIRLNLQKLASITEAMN
P50E: -18.2%
P37I: 29.1%
N114F: -7.72%
R132E: 90.3%
L91K: 3.62%
E139C: 42.2%
R45L: -4.42%
I52D: 58.5%
I52C: 32.3%
L8M: 39.7%
E64N: 53.5%
K168P: -3.5%
R113A: 47.8%
H55I: 73.6%
A175T: 48.9%
V78H: 25.5%

Series 2
Target: CCND1, cyclin fold, Cln2 fusion (human)
Method: yeast growth competition, sequencing
Matrix: yeast
Notes: strong parent motif
Relative to: not given
Direction: higher = stronger binding
Endpoint: normalised enrichment score
Starting sequence: INSM1 docking peptide (human); PKAIRKLHFEDEV
PKAIRQLHFEDEV [K6Q]: 4.23
PKAIRKGHFEDEV [L7G]: -0.0931
PKAIIKLHFEDEV [R5I]: 1.34
PKAIRVLHFEDEV [K6V]: 4.12
PKAIRHLHFEDEV [K6H]: 3.29
PKAIRKLHEEDEV [F9E]: 0.0383
PKAIRELHFEDEV [K6E]: 3.32
PKAIRKLSFEDEV [H8S]: 5.61
PKAIRKLHFEYEV [D11Y]: 2.79
PKAIRRLHFEDEV [K6R]: 4.04
PKAIRWLHFEDEV [K6W]: 2.36
PKAHRKLHFEDEV [I4H]: 0.852
PVAIRKLHFEDEV [K2V]: 3.48
PKAIRKLHFEDTV [E12T]: 4.55
PKAIRKLHFEWEV [D11W]: 2.04
PKAIRKLHFECEV [D11C]: 3.58
PYAIRKLHFEDEV [K2Y]: 2.86
PKAIRKLVFEDEV [H8V]: 5.97
PKAISKLHFEDEV [R5S]: 0.379
PKAIRKLHFCDEV [E10C]: 3.15
PKADRKLHFEDEV [I4D]: 0.0727
PPAIRKLHFEDEV [K2P]: 3.22
PKAIRKLPFEDEV [H8P]: 1.83
PMAIRKLHFEDEV [K2M]: 3.37
PKAIKKLHFEDEV [R5K]: 2.05

Series 3
Target: Ras GTPase-activating protein-binding protein 1, full length (G3BP1, Homo sapiens, UniProt Q13283)
Sequence of UniProt Q13283 (whole entry, looked up): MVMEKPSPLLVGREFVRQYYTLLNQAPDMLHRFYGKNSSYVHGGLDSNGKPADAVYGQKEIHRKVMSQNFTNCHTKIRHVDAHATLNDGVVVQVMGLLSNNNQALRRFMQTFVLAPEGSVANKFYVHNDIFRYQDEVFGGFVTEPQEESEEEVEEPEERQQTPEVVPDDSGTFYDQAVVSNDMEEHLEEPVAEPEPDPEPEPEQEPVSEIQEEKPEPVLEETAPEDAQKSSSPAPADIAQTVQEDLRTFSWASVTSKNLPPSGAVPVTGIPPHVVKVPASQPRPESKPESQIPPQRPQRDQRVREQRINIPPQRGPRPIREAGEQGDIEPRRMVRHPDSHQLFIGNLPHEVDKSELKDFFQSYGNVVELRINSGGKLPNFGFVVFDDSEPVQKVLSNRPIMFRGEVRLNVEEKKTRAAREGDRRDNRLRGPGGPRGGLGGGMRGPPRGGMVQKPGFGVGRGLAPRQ
Method: RNA Bind-n-Seq
Molecule type: RNA
Matrix: in vitro
Tested at: 200 nM
Notes: whole 134-nt RNA, ends assumed
Together with: 150 mM KCl
Relative to: input library
Direction: higher = stronger binding
Endpoint: log2 enrichment
Shared flanks, not repeated: GGGAGUUCUACAGUCCGACGAUC … UGGAAUUCUCGGGUGUCAAGG
UCAAGUCCUGUGCUACACAUCGUAUGUACCGAAUCGGAGGAAAGGUUUUUUUGGAAAGUAUUAUGUUACGCCGUUCGGAUCUGCACUUCC: -0.946
CUCAAGUCCUGUGCUACACAUCGUAUGUACCGAAUCGGAGGAAAAAGGUUUGGAAAGUAUUAUGUUACGCCGUUCGGAUCUGCACUUCCA: -0.654
ACCAUGCAGGUGGGCAUCUUUGGGAAGUGGGGCAAGGGGGGGAUAGGGAGGGGGGUAACACUUUGGCAACAGGUGGUCCCAGGUCGUUUC: 0.95
UCCUGUGCUACACAUCGUAUGUACCGAAUCGGGGAAAGGGGAAAAAGGGGUUUUUGGGGAAAGUAUUAUGUUACGCCGUUCGGAUCUGCA: 0.783
UAACUUUAGAGUAGGAUCUGAUGGAUAUGGCAGUGGACGUGGAUUUGGGGAUGGCUAUAAUGGGUAUGGAGGAGGACCUGGAGGUGGCAA: 0.532
ACCAUGCAAAAGGGCAUCUUUGGGAAGUGGGGCAAGGGGGGGAUAGGGAGGGGGGUAACACUUUGGGAACAGGUGGUCCCAGGUCGUUUC: 1.06
CCUCAAGUCCUGUGCUACACAUCGUAUGUACCGAAUCGGCGGCGGGGCGGGGAAAGUAUUAUGUUACGCCGUUCGGAUCUGCACUUCCAG: 0.378
UGGGAGGUGGAUUUUGUUUAUUUUUUUAGCUCAUUUCCAGGGGUGGGAAUUUGUUUUUAAUAUGUGUCAUGAAUAAAGUUGUUUUUGAAA: -0.0268
UAUCUUUAGAGGAGGAUCUGAUGGAUAUGGCAGUGGACGUGGAUUUGGGGAUGGCUAUAAUGGGUAUGGAGGAGGACCUGGAGGUGGCAA: 0.307
UGCUGCGGAAGGGCUCUGGCACUCUGUGUGAGGCCUUGCUGAUGGUGCAGGCCUUCCACGCCAACAUCAUCUUCCCCAACAAGCAAGAGC: 0.118
UUCCCCUGGAGGGCGCCUCCAUCCUUGGAGGCCUAGUGCCGUCGGAGAGAGAGCGGGAGCCGCGGACAGAGACGCGUGCGCAAUUCGGAG: -1.18
CACAGACAACACGCACCCACACAGACACAGAGGGAAGGGGUUGGGAUGGGGACAGGGUGCAAAACAGGGCGGGGUAGGACCCCAGCCCCU: 1.72
GCAGGAAGAAAAAACAAAUGGAAAUGCUUCGGAUAGUGGCAGGGGUGGGGGUUGCUAAGGAAAGGGUGGGAUGGGAGUGGGUAAAGAGUU: 0.869
GCAGGAAGUAAAAACAAAUGGAAAUGCUUCGGAUAGUGGCAGGGGUGGGGGUUGCUAGGGAAAGGGUGGGAUGGGAGUGGGUAAAGAGUU: 1

Series 4
Target: ATF1, bZIP domain (human)
Method: DHFR protein complementation
Matrix: yeast
Notes: single substitutions, most at no-binding floor
Relative to: wild-type JUN-FOS pair
Direction: higher = stronger binding
Endpoint: binding fitness
Starting sequence: JUN, bZIP domain (human); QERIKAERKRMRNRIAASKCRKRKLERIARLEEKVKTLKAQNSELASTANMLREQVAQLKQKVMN; partner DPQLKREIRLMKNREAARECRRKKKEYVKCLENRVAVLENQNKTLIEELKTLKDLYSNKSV
A46P: -1.48 natural log
E54L: -1.52 natural log
K39Q: -1.4 natural log
L59R: -1.53 natural log
S43Y: -1.4 natural log
E54I: -1.56 natural log
L38R: -1.56 natural log
T48E: -1.43 natural log
T48D: -1.41 natural log
E33M: -1.59 natural log
K34S: -1.54 natural log
Q41N: -1.55 natural log
V35A: -1.48 natural log
V56G: -1.53 natural log
L31H: -1.53 natural log
M51S: -1.46 natural log
A40C: -1.58 natural log
E33T: -1.49 natural log
M51T: -1.56 natural log
E32G: -1.49 natural log

Series 5
Target: Centromere-binding protein 1, full length, N-terminal tag (CBF1, Saccharomyces cerevisiae, UniProt P17106, residues 1-351)
Sequence of UniProt P17106 (whole entry, looked up): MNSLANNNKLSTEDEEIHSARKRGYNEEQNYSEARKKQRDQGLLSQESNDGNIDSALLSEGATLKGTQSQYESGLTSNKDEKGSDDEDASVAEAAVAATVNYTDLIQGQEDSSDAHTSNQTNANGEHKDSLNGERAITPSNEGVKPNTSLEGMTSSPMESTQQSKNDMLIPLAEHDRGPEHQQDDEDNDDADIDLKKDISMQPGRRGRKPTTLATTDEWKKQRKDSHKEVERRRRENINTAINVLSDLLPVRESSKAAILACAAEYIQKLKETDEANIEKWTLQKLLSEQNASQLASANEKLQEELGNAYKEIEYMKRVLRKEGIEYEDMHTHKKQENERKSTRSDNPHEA
Method: protein-binding microarray
Molecule type: double-stranded DNA, one strand shown
Matrix: in vitro
Tested at: 0.8 µM
Notes: whole 60-bp probe, no competitor
Direction: higher = stronger binding
Endpoint: fluorescence intensity
Shared flanks, not repeated: … GTCTTGATTCGCTTGACGCTGCTG
TGTACGAAGCTATGTTATGTCACTATAGTAGTTAGG: 494 a.u.
CCTAACTACTATAGTGGTGTCCCATAGCTTCGTACA: 495 a.u.
TGTACGAAGCTATCAGATGTCACTATAGTAGTTAGG: 562 a.u.
GAATGGCATTCTTATCTCGTGCTTTTATTAGTGTAG: 936 a.u.
GAAGGCGGCAACCTGGGTGTCACCGAATAACGTTAG: 463 a.u.
GAAGCCGCGGAGTGAGATCACATGTCATATTGATAG: 3860 a.u.
CTATCTCGCAGTTGTCACGTGCAATTTGATACATTC: 12700 a.u.
GAATCACTACTTCATCAGATGAGGAGGGGAGGGTAG: 508 a.u.
GAAGCAGGATGAAATCACGGGCGATGGGACCACTAG: 792 a.u.
CTATTTGTCTACTTGCGTGTGCTTTCAGTTCTTTTC: 535 a.u.
GAATTTTGCCGAAAGCACATGCTTGTCTTTGTATAG: 700 a.u.
CTAGCTCCACCAGCTGATGTGTGCATTTTTTTTTTC: 531 a.u.
CTAGATTAGTGCTTATGCCTGATGTACTGCCATTTC: 498 a.u.
CTATTTTCTCAAGGTGACCTGTTGTATCACGTTTTC: 1170 a.u.
CTAAGGTAGTTGGATCAGCTGAAGTATTTGGGTTTC: 551 a.u.
CTATTTTCGCATTCTATCACCTGTATTATTATATTC: 755 a.u.
CTACCGCTGGTAATCGTGGTGACTCCAGAACCATTC: 522 a.u.
GAAAAATTATCAATTCTCCTGATCACTACTGGTTAG: 529 a.u.
CCTAACTACTATAACCACGTTAAATAGCTTCGTACA: 523 a.u.

Series 6
Substance: PhoQ, residues 284 288 289 292 302 303 SNSSNI
Method: Sort-seq
Item: YFP reporter
Matrix: E. coli
Notes: PhoQ-PhoP variant library
Together with: 10 µM Mg2+
Relative to: high Mg2+ state
Direction: higher = stronger signaling
Endpoint: fold induction
PhoP, residues 12 14 15 18 19 NQCAL (Escherichia coli, UniProt P23836): 2.9
PhoP, residues 12 14 15 18 19 TQAML (Escherichia coli, UniProt P23836): 10.3
PhoP, residues 12 14 15 18 19 LHTVL (Escherichia coli, UniProt P23836): 11.8

Repeated from above (series 3):
ACCAUGCAGGUGGGCAUCUUUGGGAAGUGGGGCAAGGGGGGGAUAGGGAGGGGGGUAACACUUUGGCAACAGGUGGUCCCAGGUCGUUUC: 0.95
UCCUGUGCUACACAUCGUAUGUACCGAAUCGGGGAAAGGGGAAAAAGGGGUUUUUGGGGAAAGUAUUAUGUUACGCCGUUCGGAUCUGCA: 0.783
GCAGGAAGAAAAAACAAAUGGAAAUGCUUCGGAUAGUGGCAGGGGUGGGGGUUGCUAAGGAAAGGGUGGGAUGGGAGUGGGUAAAGAGUU: 0.869
UAACUUUAGAGUAGGAUCUGAUGGAUAUGGCAGUGGACGUGGAUUUGGGGAUGGCUAUAAUGGGUAUGGAGGAGGACCUGGAGGUGGCAA: 0.532
CACAGACAACACGCACCCACACAGACACAGAGGGAAGGGGUUGGGAUGGGGACAGGGUGCAAAACAGGGCGGGGUAGGACCCCAGCCCCU: 1.72
GCAGGAAGUAAAAACAAAUGGAAAUGCUUCGGAUAGUGGCAGGGGUGGGGGUUGCUAGGGAAAGGGUGGGAUGGGAGUGGGUAAAGAGUU: 1
UCAAGUCCUGUGCUACACAUCGUAUGUACCGAAUCGGAGGAAAGGUUUUUUUGGAAAGUAUUAUGUUACGCCGUUCGGAUCUGCACUUCC: -0.946
ACCAUGCAAAAGGGCAUCUUUGGGAAGUGGGGCAAGGGGGGGAUAGGGAGGGGGGUAACACUUUGGGAACAGGUGGUCCCAGGUCGUUUC: 1.06
CUCAAGUCCUGUGCUACACAUCGUAUGUACCGAAUCGGAGGAAAAAGGUUUGGAAAGUAUUAUGUUACGCCGUUCGGAUCUGCACUUCCA: -0.654
UAUCUUUAGAGGAGGAUCUGAUGGAUAUGGCAGUGGACGUGGAUUUGGGGAUGGCUAUAAUGGGUAUGGAGGAGGACCUGGAGGUGGCAA: 0.307
CCUCAAGUCCUGUGCUACACAUCGUAUGUACCGAAUCGGCGGCGGGGCGGGGAAAGUAUUAUGUUACGCCGUUCGGAUCUGCACUUCCAG: 0.378
